Results from different studies.
Compare with care: the assays were run in different laboratories. ± marks the error that the study gave.
SLC10A2: Ileal sodium/bile acid cotransporter (SLC10A2, Homo sapiens, UniProt Q12908)
CHRM5: Muscarinic acetylcholine receptor M5 (CHRM5, Homo sapiens, UniProt P08912)
ABO G235S/G268A/L266M/R176G: Histo-blood group ABO system transferase (ABO, Homo sapiens, UniProt P16442, G235S/G268A/L266M/R176G)
T1: DNA aptamer; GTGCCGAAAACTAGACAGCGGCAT
T2: pre-miR-21 RNA (Homo sapiens); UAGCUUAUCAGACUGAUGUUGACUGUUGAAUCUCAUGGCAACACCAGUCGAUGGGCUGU

| SMILES | target | test | system | setting | how to read | quantity | value |
| --- | --- | --- | --- | --- | --- | --- | --- |
| CCCCC[C@H](O)/C=C/[C@H]1[C@H](O)CC(=O)[C@@H]1C/C=C\CCCC(=O)O | SLCO2A1 (Homo sapiens, UniProt Q92959, W565F) | cellular uptake | HEK293F | concentration not given | relative to: wild-type transporter | inhibition of transport | increased |
| CC(C)[C@H](NC(=O)[C@@H]1CCCN1C(=O)[C@H](CCCCN)NC(=O)[C@H](Cc1ccccc1)NC(=O)[C@H](Cc1ccccc1)NC(=O)[C@H](CC(=O)O)NC(=O)[C@H](CCC(=O)O)NC(=O)[C@H](Cc1ccc(O)cc1)NC(=O)[C@H](CC(=O)O)NC(=O)[C@H](CCC(=O)O)NC(=O)[C@H](CC(=O)O)NC(=O)[C@H](CCC(=O)O)NC(=O)[C@@H](N)Cc1ccc(O)cc1)C(=O)N[C@H](C(=O)N[C@@H](CSSC[C@H](NC(=O)[C@@H](NC(=O)[C@@H](NC(=O)[C@@H]1CCCN1C(=O)[C@H](CCCCN)NC(=O)[C@H](Cc1ccccc1)NC(=O)[C@H](Cc1ccccc1)NC(=O)[C@H](CC(=O)O)NC(=O)[C@H](CCC(=O)O)NC(=O)[C@H](Cc1ccc(O)cc1)NC(=O)[C@H](CC(=O)O)NC(=O)[C@H](CCC(=O)O)NC(=O)[C@H](CC(=O)O)NC(=O)[C@H](CCC(=O)O)NC(=O)[C@@H](N)Cc1ccc(O)cc1)C(C)C)[C@@H](C)O)C(=O)N[C@@H](Cc1ccc(O)cc1)C(=O)N[C@@H](Cc1ccccc1)C(N)=O)C(=O)N[C@@H](Cc1ccc(O)cc1)C(=O)N[C@@H](Cc1ccccc1)C(N)=O)[C@@H](C)O | C-C motif chemokine 8 (CCL8, Homo sapiens, UniProt P80075) | isothermal titration calorimetry | – | concentration not given | – | binding entropy ΔS | 33.3 J/mol/K |
| C/C(=N\OCCN1CCCC1)c1ccc(C(F)(F)F)cc1 | rat sigma-1 receptor | binding | – | together with: phenytoin 250 µM | relative to: without over with phenytoin | Ki ratio | 9.12 |
| Cc1cc(NC(=O)c2cccc(-n3cc(NC(=O)Nc4ccc(Cl)cc4)cn3)c2)ccn1 | Mitogen-activated protein kinase 10, isoform alpha-1 (MAPK10, Homo sapiens, UniProt P53779, L144I) | HTRF | – | – | relative to: L144I mutant over wild type | IC50 ratio | 4.2 fold |
| O=C(Nc1ccc(OC(F)(F)F)cc1)NC1CCN(C(=O)C2CC2)CC1 | Ephx2 (Mus musculus, UniProt P34914) | – | wild-type mice | tested 0.3 to 10 mg/kg, together with: TPPU 0.3 mg/kg | – | dose reaching plateau of displacement | 3 mg/kg |
| Cc1ccc(NC(=O)c2c(C)oc3ccc(O)c(CN4CCCCCC4)c23)cc1 | FOXO3 binding site DNA | binding, small molecule microarray | – | – | direction not given | composite Z-score | 0.16 |
| CCOC(=O)CCC(NC(=O)C(NC(=O)c1c(C)nn(-c2ccc(F)cc2)c1C)C(C)C)C(=O)OCC (centres unmarked) | NOD1 (Homo sapiens, UniProt Q9Y239) | NF-κB reporter gene, agonist | HEK-Blue cells expressing NOD1 | 10 µM, 16 h | – | activity | inactive |
| CCNC(=O)[C@H]1O[C@@H](n2cnc3c(Nc4ccc(I)cc4)ncnc32)[C@H](O)[C@@H]1O | ADORA3 (Homo sapiens, UniProt P0DMS8) | kinetic radioligand binding | – | 10 °C, no GTP, together with: [3H]PSB-11 | – | koff | 0.00014 ± 1e-05 s⁻¹ |
| CN(C)CCCOc1ccc2cc(CN)ccc2c1 | Primary amine oxidase, liver isozyme (Bos taurus, UniProt Q29437) | substrate, fluorescence | – | pH 7.2, 30 °C | – | kcat | 0.302 ± 0.006 s⁻¹ |
| Cc1ccc(NC(=O)CCC(NC(=O)CCC(C)C2CCC3C4C(O)CC5CC(O)CCC5(C)C4CCC23C)C(=O)O)c(C)n1 (centres unmarked) | SLC10A2 | transport efficiency, substrate, LC-MS/MS | ASBT-MDCK | – | – | normalized Jmax/Kt | 0.00554 µM⁻¹ |
| CNc1ccccc1C(=O)O[C@H]1C[C@H](n2cnc3c(N)ncnc32)O[C@@H]1COP(=O)(O)OP(=O)(O)O | Unconventional myosin-Va (Gallus gallus, UniProt Q02440, D297C/G292C/I296C/S293C/V295G) | FRET | compound complex | 15 °C, together with: 4 mM EDTA | – | donor-acceptor distance | 20.9 Å |
| C[C@H](Cn1cnc2c(N)ncnc21)OCP(=O)(O)O | T1, DNA aptamer | interferometric free solution assay | – | 2 h, 22 °C, NaCl 150 mM, single-site fit | – | Kd | 0.00417 µM |
| CCCCOc1ccc(C(=O)OCC[N+]2(C)CC=CCC2)cc1 (centres unmarked) | CHRM5 | recovery of [3H]NMS binding after washing | membranes | 100 µM | – | dissociation half-time | 0.5 ± 0.1 h |
| C=CCCCCCCO[C@H]1O[C@H](CO)[C@H](O)[C@H](O[C@@H]2O[C@H](CO)[C@H](O)[C@H](O)[C@H]2O[C@@H]2O[C@@H](C)[C@@H](O)[C@@H](O)[C@@H]2O)[C@H]1NC(C)=O | ABO G235S/G268A/L266M/R176G | methyl-TROSY NMR titration lineshape analysis | – | apo enzyme | – | kon | 230000 M⁻¹ s⁻¹ |
| CCCCCCOc1ccc(C(=O)OCC[N+]2(C)CC=CCC2)cc1 (centres unmarked) | CHRM5 | antagonist, measured: inositol phosphates | CHO | M5, together with: carbachol | – | cooperativity factor | 0.0009 ± 0.0002 |
| O=c1[nH]cnc2c(CN3C[C@@H](O)[C@H](O)C3)c[nH]c12 | PNP (Homo sapiens, UniProt P00491) | isothermal titration calorimetry | – | concentration not given, pH 7.4, 27 °C, first subunit, together with: 50 mM phosphate | – | binding enthalpy | -12.3 ± 0.3 kcal/mol |

| SMILES | target | test | system | setting | how to read | quantity | value |
| --- | --- | --- | --- | --- | --- | --- | --- |
| CC(=O)N1CCC=C(c2cc3c(Nc4cc5ncsc5cc4F)ncnc3s2)C1 | RIPK1 (Homo sapiens, UniProt Q13546) | enzyme activity | – | 1 µM | relative to: untreated | remaining activity | 103% |
| C[C@H](CCC(=O)N[C@@H](CCC(=O)Nc1ccc(O)cc1)C(=O)O)[C@H]1CC[C@H]2[C@@H]3[C@H](O)C[C@@H]4C[C@H](O)CC[C@]4(C)[C@H]3CC[C@]12C | SLC10A2 | transport efficiency, substrate, LC-MS/MS | ASBT-MDCK | – | – | normalized Jmax/Kt | 0.0286 µM⁻¹ |
| COC(=O)C1=Cc2ccccc2S1(=O)=O | STAT3 (Homo sapiens, UniProt P40763) | inhibitor, immunoblotting | HepG2 | up to 20 µM, together with: IL6 | – | IL6-induced phosphorylation | no inhibition |
| CCC(=C(c1ccc(O)cc1)c1ccc(OCCN(C)CCOCCOCCOCCOCCOCCOCCOCCN(C)CCOc2ccc(C(=C(CC)c3ccccc3)c3ccc(O)cc3)cc2)cc1)c1ccccc1 (mixture of isomers) | ESR2 (Homo sapiens, UniProt Q92731) | radioligand competition binding | – | concentration not given, Z-Z/Z isomer form, together with: [3H]estradiol tracer | relative to: estradiol | relative binding affinity | 20.7 ± 1.6% |
| O=C([O-])CN1CCN(CC(=O)[O-])CCN(C(CCC(=O)NCCCCCN(CCCC[C@H](NC(=O)N[C@@H](CCC(=O)O)C(=O)O)C(=O)O)C(=O)c2ccc(I)cc2)C(=O)O)CCN(CC(=O)[O-])CC1.[68Ga+3] (some centres unmarked) | FOLH1 (Homo sapiens, UniProt Q04609) | PET/CT | prostate cancer patients, lymph node metastases | 60 min post-injection | – | SUVmax | 17.1 ± 15.2 |
| C=CC(=O)N1CCC(c2ccccc2)CC1 | Fosb/Jund, ΔFosB bZIP domain (Mus musculus, UniProt P13346+P15066) | covalent adduct, intact mass LC-MS | – | concentration not given | – | protein-compound complex | < 2% |
| CNCC=C(C)C=CC=CC=CC1=C(C)CCCC1(C)C | Rhodopsin (RHO, Homo sapiens, UniProt P08100, P23H) | pharmacological chaperone, immunostaining, nonpermeabilized cells | 661W | 2.5 µM, 16 h | relative to: untreated cells | cell surface expression | ~3 fold |
| CC1=C(/C=C/C(C)=C/C=C/C(C)=C/C=O)C(C)(C)CCC1 | CNGA1 (Bos taurus, UniProt Q00194) | channel binding, allosteric model fit | – | – | – | association constant K3 | 2.8e+10 M^-n |
| CSCC[C@H](NC(=O)[C@H](CO)NC(=O)[C@@H](NC(=O)[C@H](CCC(N)=O)NC(=O)[C@@H](CCCNC(=N)N)NC(=O)[C@@H](CCCNC(=N)N)NC(=O)[C@@H](CCCCN)NC(=O)[C@@H](CCCNC(=N)N)NC(C)=O)[C@@H](C)O)C(=O)N[C@H](C(=O)N[C@@H](CC(=O)O)C(=O)N[C@@H](Cc1ccccc1)C(=O)N[C@@H](Cc1ccc(O)cc1)C(=O)N[C@@H](Cc1c[nH]cn1)C(=O)N[C@@H](CO)C(=O)N[C@H](CCCCN)C(=O)N[C@H](CCCNC(=N)N)C(=O)N[C@H](CCCNC(=N)N)C(N)=O)[C@@H](C)O | PCNA (Homo sapiens, UniProt P12004) | isothermal titration calorimetry | – | concentration not given, pH 7.4, 25 °C, 400 mM NaCl, together with: p21 peptide | – | binding enthalpy ΔH | -21.3 ± 0.478 kcal/mol |
| C=CCC1NC(=O)C=CC(=O)NC(C(N)=O)CCNC(=O)C(CCCNC(=O)c2cnccn2)NC(=O)C(Cc2ccco2)NC1=O (centres unmarked) | MAPKAPK2 (Homo sapiens, UniProt P49137) | DNA-templated library selection | – | one selection round | – | enrichment factor | 1.2 |
| CCNC(=O)[C@H]1O[C@@H](n2cnc3c(NCCOCCOCCNC(=O)CCCCCNC(=O)COc4ccc(/C=C/C5=[N+]6C(=Cc7ccc(-c8cccs8)n7[B-]6(F)F)C=C5)cc4)ncnc32)[C@H](O)[C@@H]1O | ADORA1 (Homo sapiens, UniProt P30542) | radioligand binding, whole-cell binding | CHO-A1 | 2 h, together with: [3H]DPCPX | relative to: specific binding, 10 µM XAC | maximal inhibition | 24.3 ± 4.8% |
| CC(=O)N[C@H]1[C@@H](OP(=O)(O)OP(=O)(O)OC[C@H]2O[C@@H](n3ccc(=O)[nH]c3=O)[C@H](O)[C@@H]2O)O[C@H](CO)[C@@H](O)[C@@H]1O | ABO G235S/G268A/L266M/R176G | binding, NMR | – | – | – | kon | 190000 M⁻¹ s⁻¹ |
| Cc1nc(/N=N/c2cc3c(S(=O)(=O)O)cc([N+](=O)[O-])cc3cc2S(=O)(=O)O)c(COP(=O)(O)O)c(C=O)c1O | Neutrophil elastase (ELANE, Homo sapiens, UniProt P08246) | enzyme activity, inhibitor, chromogenic substrate hydrolysis | – | pH 7.4, 37 °C, 100 mM NaCl, together with: substrate S-1384 | – | maximal inhibition | 105 ± 4.4% |
| Cc1ccc(C(=O)NCCN(Cc2ccncc2)C(=O)CCCOc2ccc(-c3nc4cc(-c5ccc(N6CCN(C)CC6)cc5)ccc4[nH]3)cc2)cc1F | T2, pre-miR-21 RNA (Homo sapiens) | RNase L cleavage, competitor, RNase L cleavage assay | – | together with: RIBOTAC TGP-21-C1-3 | – | IC50 | 21 µM |
| CCN(CC)C(=O)c1ccc(O)c(OC)c1 | Heat shock protein HSP 90-alpha, N-terminal domain (HSP90AA1, Homo sapiens, UniProt P07900) | binding, ligand-observed NMR titration | – | ligand to protein ratio 125 | – | contrast | 63% |
| CC(C)C[C@H](NC(=O)[C@H](CC(C)C)NC(=O)[C@@H](NC(=O)[C@H](Cc1ccccc1)NC(=O)[C@@H](Cc1c[nH]c2ccccc12)NC(=O)[C@@H](N)CCCCN)[C@@H](c1ccccc1)c1c[nH]c2ccccc12)C(N)=O | GHSR (Homo sapiens, UniProt Q92847) | inverse agonist, IP-One HTRF | – | – | relative to: KwFwLL-NH2 | fold decrease in inverse agonism | > 10 fold |
